Published values from different studies.
Parts stem from different laboratories: compare values within a part only.

Block 1 — method: protein-binding microarray; form: double-stranded DNA, one strand shown; medium: in vitro; tested at: 2200 nM top; setting: 60-bp whole probe; added: salmon DNA 0.4 mg/ml; relative to: random background probes; reading: higher = stronger binding; measurement: fitted relative affinity; all sequences stand within: GCCTAGCAC … GTCTTGATTCGCTTGACGCTGCTG
Target: Interferon regulatory factor 7, full length, phosphomimetic (IRF7, Homo sapiens, UniProt Q92985, residues 1-503, S471D/S472D/S475D/S476D/S477D/S483D/S484D/S487D)
Residues (chain): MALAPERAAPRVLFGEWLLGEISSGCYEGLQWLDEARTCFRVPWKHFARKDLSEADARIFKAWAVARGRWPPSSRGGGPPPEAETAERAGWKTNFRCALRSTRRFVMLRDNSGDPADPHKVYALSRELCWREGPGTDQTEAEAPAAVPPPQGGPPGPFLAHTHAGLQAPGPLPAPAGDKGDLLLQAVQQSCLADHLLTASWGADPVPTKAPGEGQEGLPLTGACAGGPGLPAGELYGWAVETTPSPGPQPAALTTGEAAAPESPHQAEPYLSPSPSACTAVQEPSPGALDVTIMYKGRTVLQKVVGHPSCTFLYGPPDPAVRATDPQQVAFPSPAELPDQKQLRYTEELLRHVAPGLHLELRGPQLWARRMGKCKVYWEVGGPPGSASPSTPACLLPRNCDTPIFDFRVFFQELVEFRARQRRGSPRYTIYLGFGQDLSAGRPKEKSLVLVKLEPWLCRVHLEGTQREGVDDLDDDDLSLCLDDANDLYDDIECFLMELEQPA
TTAGGTATCGACCCTGGGTTAGTGCTA: -0.364 z-score
ACCCTGCCTAAAGCTAGTTTGTGCTAG: 0.668 z-score
GACGAATTCAGACTGGAGACGTGCTAG: -0.208 z-score
AACGGTATCGACTATCGGGACGTGCTA: -0.0548 z-score
GACGGCTTCGGTTCCGGGACGTGCTAG: 0.635 z-score
TCACTTCTGGGCTGTTTAACTGTGCTA: 1.27 z-score
TTAGATATCAGGACTGGATTAGTGCTA: -0.519 z-score
ATGAGACTGTCACATCCCTGGTGCTAG: 0.166 z-score
TCACTAATGTTTTTTAAACTGTGCTAG: 0.355 z-score
GACGGTATCCTGATCCTGACGTGCTAG: 0.777 z-score
TTAGGTTTCGGTTCCGGTTGGTGCTAG: 12.1 z-score
TTCGGTTTCGGTTTCGGTTAGTGCTAG: 18.5 z-score
CTAGTTAAGGTACACCAGCAGTGCTAG: -0.0639 z-score
GACGGTCTCAGTTTCGGGACGTGCTAG: 3.8 z-score
GACGAACTGAGTAGCGAGACGTGCTAG: -0.406 z-score
GACGGTATCGGTCTCGGGAAGTGCTAG: 0.136 z-score
CAGGAAATCAACTTTTTTTAAGTGCTA: -1.33 z-score
GACGGTCTTGGTATCGGGACGTGCTAG: 0.153 z-score
TTAGATATCAGTAGCGATTAGTGCTAG: -0.44 z-score
GACGGTTTCGACACTGGGGATGTGCTA: 2.85 z-score
GACGGTCGCGGACTGGGGACGTGCTAG: -0.66 z-score
GGCAGCCTCTGCATTCCCTCAGTGCTA: -0.38 z-score

Block 2 — method: protein binding microarray; form: double-stranded DNA, one strand shown; medium: in vitro; tested at: not given; relative to: not given; reading: higher = stronger binding; measurement: E-score
Target: Histone acetyltransferase KAT6A, winged helix 2, GST fusion (KAT6A, Homo sapiens, UniProt Q92794, residues 85-181)
Setting: 8-mer, flanks averaged, mean of 2 arrays, mostly near background
Residues (chain): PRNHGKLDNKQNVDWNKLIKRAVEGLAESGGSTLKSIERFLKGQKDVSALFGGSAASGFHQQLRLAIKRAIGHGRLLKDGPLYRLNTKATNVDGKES
GACATGAA: -0.0331
ACATTACC: -0.231
CCTCGGCA: 0.182
TGCAGCAA: 0.0707
CTGAGTTC: 0.0524
ATCCGTTC: 0.0659
GCACGACC: -0.131
ATATAACG: 0.125
CGTGGGCC: 0.0892
GGGTAGAA: 0.0215
GTGAAGCA: 0.102
GAAGTTGC: -0.0269
AGCTCACA: 0.0967
ACTTCAAC: -0.0969
ACAAAGCA: 0.287
ATTCTGAA: 0.111
CTACTGCC: -0.13
CCACTACC: -0.146
CACGATAG: -0.086
ATTGGAAG: -0.0555
CACAGCGG: 0.0194
GAGGGAAC: -0.0249
GCGCATGA: -0.0576
TGCCTACA: 0.0171
CCATCTCG: -0.00829

Block 3 — method: universal PBM; form: double-stranded DNA, one strand shown; medium: in vitro; tested at: not given; reading: higher = stronger binding; measurement: E-score
Target: Sal-like protein 4, full length isoform B (SALL4, Homo sapiens, UniProt Q9UJQ4-2, residues 1-616)
Setting: 8-mer, flanks averaged, mean of replicates
CCCGCAAA: -0.0475
CTCCGGGC: -0.364
AACGTATT: 0.235
CCCCGCTA: -0.172
GCATCAGA: 0.143
ACCGGCAT: -0.0687
CTCGTCAA: -0.17
CTCGCGCA: -0.067
ATTAAGGG: 0.0735
CACGTGGC: -0.225
CGATTTTC: 0.0893
CATTGGTA: -0.0246
GGAGGAAA: -0.109
GAGGTAGC: -0.147
CACCACAG: -0.0766
AATTACCT: 0.266
AGCTCATG: -0.0684
GGAGCCAC: -0.307
GAATCAAA: -0.0608
CGCTGAAG: -0.191
GAAACAGC: -0.0701
GACTTTAC: -0.039
ACACACAT: 0.218
AGCGACAA: 0.0364
GCGTTCTA: -0.125

Block 4 — method: RNA Bind-n-Seq; form: RNA; medium: in vitro; tested at: 365 nM; relative to: no-protein control; reading: higher = stronger binding; measurement: RBNS enrichment (R)
Target: RNA binding protein fox-1 homolog 2, RRM domain, GST-SBP tag (RBFOX2, Homo sapiens, UniProt O43251-10, residues 100-194)
Setting: natural RNA segment, single round, ends assumed
All sequences stand within: GGGAGUUCUACAGUCCGACGAUC … UGGAAUUCUCGGGUGCCAA
Target sequence (chain): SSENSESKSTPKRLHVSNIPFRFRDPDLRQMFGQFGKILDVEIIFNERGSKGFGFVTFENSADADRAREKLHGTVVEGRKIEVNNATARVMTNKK
GAUCAUAAAGAGCUAUUUUUGACACCCCCCCCCCACUUUUUUAACAUUUAGAGUUAGUAAGGGUUUUAUAUCUCUUCUGUCCAUAUUGUUUUCAAAGGAAUGAGGUGUUU: 0.445
CAAAUCUGUGUUGGGGUUCCAGUGCAACUGAGAAGGAAAACAAUCCAGCUAUUGAAAGCAACAACCUAAUGGGUCCAUUUGGUCCCCCUGGGUCAUUUUAACAAGGGUGA: 0.251
CAGAGUACAGUAGAGGAGGACUUGUUAGGUUCAUUGUUCCCCGGAAGAAGCUUCCUGCAAUGCCCAGGAGCAUCCCACAGGCAAUAGAGUACCAAUAUGGUAGACCUCUU: 0.269
ACACAAGCAUCAUGCAGUGGCGCGUCAUUUAUACCCACCGAGAGCUGUGGGGAGCAGCAUGGGCAAGGAAGACACAGACUCGCAUUACCCUUGGUCACUGUGAUUUCUGU: 1.06
ACACCAUGUUUGAGCUCAGACCCCCACUCUCAUUCCCCAGGUGGCUGACCCAGUCCCUGGGGGAAGCCCUGGAUUUCAGAAAGAGCAAGUCUGGAUCUGGGACCCUUUCC: 0.288
GGUGGGAGCAGUGUCACUGUGCUAGCAAUAGUUGGCUUCUCCCCUGUCAGUGGAAACCCCACUUCUGCCCGGCCCUUGAGCUUCUUGCCCACUGUCUCCCCAUCCUUCCA: 0.515
AAUGGCUGUAAGUUAUGAUAAGGAAAUGUACUGAUUGCCAGUGCACUCCACCCUCAUUACGUCACCAGGACUUGAAGCCAAGGGUUAAGAGGGCAAGCUAUGACAUGGGU: 0.343
AGGUGCUCCCUCCACCCAAUACCAUUUCUUACCCUCUAAUCCUACCUGAUCUUUAACAAAGCAUUAAUAAUUCUAAGGAUAAUCUCUAUUUUGUUGUGCUUUUUUGUAAC: 0.536
UUAAAAAGAUAAAACAAGAUAAUGGGUUCUUUGUAUUGGCACUUUGCACCAGAAACAUAUCAUUAUUUAUUGAUGUGAUUACUUAUUUGUUAUCCACCUUGUACUAGUAA: 0.484
CUGAUGCCUUUUGUACCGAGGAAGAUAAUUGCCUCUUGUUUGACAAGUAGAGUUUAGUAGGUUAUUACAAAAAGGGCAAGAGUUGUUUUGGUUUUGUUUCUUUCAAAAUA: 0.452
AGAGCUACAACAUGCCAUCUAUAGUUGCCAGCCCUGGUCAGUUUUGAUUCUUAACCCCAUGGACUCCUUUCCCUUUCUUCUCUGAAAAAAACUAAUUUAAAUUUGCUUUU: 1.27
AGCAACGUGGGGGGUGGGGUUGCGAGGGAUGUGUUCACAUGUACCCAUCAUUUGAUCAUAGCACUGUGAUUGCUUUUGAUGUGUGUCUCUAGUGGUGUGCUGUCUGUUGG: 1.83

A few entries again (block 1):
ATGAGACTGTCACATCCCTGGTGCTAG: 0.166 z-score
TCACTAATGTTTTTTAAACTGTGCTAG: 0.355 z-score
GACGGTATCCTGATCCTGACGTGCTAG: 0.777 z-score
TTAGGTTTCGGTTCCGGTTGGTGCTAG: 12.1 z-score
TTCGGTTTCGGTTTCGGTTAGTGCTAG: 18.5 z-score
CTAGTTAAGGTACACCAGCAGTGCTAG: -0.0639 z-score
GACGGTCTCAGTTTCGGGACGTGCTAG: 3.8 z-score
GACGAACTGAGTAGCGAGACGTGCTAG: -0.406 z-score
GACGGTATCGGTCTCGGGAAGTGCTAG: 0.136 z-score
CAGGAAATCAACTTTTTTTAAGTGCTA: -1.33 z-score
GACGGTCTTGGTATCGGGACGTGCTAG: 0.153 z-score
TTAGATATCAGTAGCGATTAGTGCTAG: -0.44 z-score
